Results of several laboratories.
A part holds a random share of what one study measured. Substitutions count along the parent as printed.

Study 1
Target: ABI1, truncated, D143A, DHFR fusion (Arabidopsis thaliana)
Method: DHFR PCA, deep sequencing
Matrix: yeast
Setting: methotrexate growth selection, single substitutions
Added: (+)-ABA 0.0091 µM
Relative to: wild-type fitted maximum
Direction: higher = stronger binding
Parent: PYL1, truncated, DHFR fusion (Arabidopsis thaliana); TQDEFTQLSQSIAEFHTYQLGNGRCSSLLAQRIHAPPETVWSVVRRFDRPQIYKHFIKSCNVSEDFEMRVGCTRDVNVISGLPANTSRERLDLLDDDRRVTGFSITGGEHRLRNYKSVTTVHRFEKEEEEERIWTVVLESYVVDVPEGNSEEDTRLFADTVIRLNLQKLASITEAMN; partner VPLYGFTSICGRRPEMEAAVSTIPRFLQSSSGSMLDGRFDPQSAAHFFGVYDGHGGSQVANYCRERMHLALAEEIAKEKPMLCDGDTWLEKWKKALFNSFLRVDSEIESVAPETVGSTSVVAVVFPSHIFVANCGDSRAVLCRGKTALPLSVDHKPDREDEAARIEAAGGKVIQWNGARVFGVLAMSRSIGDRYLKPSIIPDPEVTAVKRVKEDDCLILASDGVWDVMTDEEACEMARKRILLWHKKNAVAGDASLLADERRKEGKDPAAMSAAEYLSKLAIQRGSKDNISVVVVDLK
Change	relative binding score [%]
S42L	-3.65
P83L	3.2
T101Y	3.32

Study 2
Target: Histone acetyltransferase KAT6A, winged helix 2, GST fusion (KAT6A, Homo sapiens, UniProt Q92794, residues 85-181)
Method: protein binding microarray
Molecule type: double-stranded DNA, one strand shown
Matrix: in vitro
Tested at: not given
Setting: 8-mer, flanks averaged, mean of 2 arrays, mostly near background
Relative to: not given
Direction: higher = stronger binding
Construct (chain): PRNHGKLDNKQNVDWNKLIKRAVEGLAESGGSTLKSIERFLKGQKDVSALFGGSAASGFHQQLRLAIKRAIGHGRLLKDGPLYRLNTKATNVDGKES
Strand	E-score
CGTGTATC	-0.00954
ATGACCTA	-0.216
AAGAATGT	-0.0993
ACTGATGA	-0.174
CCAGGTGC	0.0966
AGTACAGA	-0.0245
TACGCAAA	-0.0186

Study 3
Target: CCNA1, cyclin fold, Cln2 fusion (human)
Method: yeast growth competition, sequencing
Matrix: yeast
Setting: weak parent motif
Relative to: not given
Direction: higher = stronger binding
Parent: PKN2 docking peptide (human); VSAVQKLDFSDTM
Change	normalised enrichment score
S10T	0.139
D11E	0.258
M13R	0.147
L7C	0.239
F9K	0.403
A3N	0.187
V4Y	0.284

Single results of other studies
Substance	target	test	test system	setting	scale	measurement	result
PhoQ, residues 284 288 289 292 302 303 SMMNNA	PhoP, residues 12 14 15 18 19 DLLYY (Escherichia coli, UniProt P23836)	Sort-seq, measured: YFP reporter	E. coli	PhoQ-PhoP variant library, added: 10 µM Mg2+	relative to: high Mg2+ state, higher = stronger signaling	fold induction	2.19

Excerpt of the above (single results of other studies):
Substance	target	test	test system	setting	scale	measurement	result
PhoQ, residues 284 288 289 292 302 303 SMMNNA	PhoP, residues 12 14 15 18 19 DLLYY (Escherichia coli, UniProt P23836)	Sort-seq, measured: YFP reporter	E. coli	PhoQ-PhoP variant library, added: 10 µM Mg2+	relative to: high Mg2+ state, higher = stronger signaling	fold induction	2.19
